Results pooled from the literature.
Lines come from different studies, so protocols differ. ± gives the spread as reported.

Molecule	cell line	read-out	method	time	IC50
O=C1NCCc2c(OCCCCN3CCCCC3)cccc21	HeLa	cell viability	CCK-8	11 h	> 150 µM
C=C(C)C(=O)O[C@H]1C[C@@]2(C)OC(=CC2=O)C(=C)[C@H](O)[C@H]2OC(=O)C(=C)[C@@H]21	HT-29	cytotoxicity			0.28 µM
dolastatin 16	HeLa	cell viability	MTT	48 h	58 µM
O=C(/C=C/c1ccc(Cn2cc(Cn3cnc4ccc(I)cc4c3=O)nn2)cc1)NO	MRC5	cell growth or viability	MTT	48 h	73 µM
CCN(CC)Cc1cc(Nc2ccnc3cc(Cl)ccc23)ccc1O	HepG2 overexpressing CYP2C8	cell viability	MTT	48 h	11.6 µM
C=CC(C)(C)c1cc(-c2oc3cc(O)ccc3c2Cc2cc(-c3cc4cc(C(C)(C)C=C)c(O)cc4oc3=O)c(O)cc2O)c(O)cc1O	HT-29	cell growth or viability			4.5 µM
C=C1C(=O)O[C@@H]2C[C@@H](C)/C=C\C(=O)[C@](C)(OC(C)=O)C[C@H](OC(=O)/C(C)=C\C)[C@@H]12	HT-29	cytotoxicity			1.2 µM
CCCCC(CC)COC(=O)CC(C(=O)OCC(CC)CCCC)S(=O)(=O)O.CN(C)C(=N)N=C(N)N (stereo not drawn)	MYCN-2	cytotoxicity	SRB		150 µM
C=CC(C)(C)c1cc2c(cc1O)OC[C@H](c1cc(-c3oc4cc(O)ccc4c3C(=O)c3cc(C(C)(C)C=C)c(O)cc3O)c(O)cc1O)C2	HT-29	cell growth or viability			4.2 µM
O=C(/C=C/c1ccc(Cn2cc(Cn3cnc4cc(F)ccc4c3=O)nn2)cc1)NO	MRC5	cell growth or viability	MTT	48 h	15 µM
C=CC(C)(C)c1cc(C(=O)c2c(-c3cc(-c4cc5cc(C(C)(C)C=C)c(O)cc5oc4=O)c(O)cc3O)oc3cc(O)ccc23)c(O)cc1O	HT-29	cell growth or viability			1.6 µM
COc1cccc2c1C(=O)c1c(O)c3c(c(O)c1C2=O)C[C@@](O)(C(=O)CO)C[C@@H]3O[C@H]1C[C@H](N)[C@H](O)[C@H](C)O1	MRC5	cell growth or viability	MTT	48 h	0.42 µM
C=C(C)C(=O)O[C@H]1C[C@@]2(C)OC(=CC2=O)/C(CO)=C\[C@H]2OC(=O)C(=C)[C@H]12	HT-29	cytotoxicity			0.56 µM
CC1(C)c2cc(CC(=O)c3ccc(O)cc3O)c(O)cc2OC1CO (stereo not drawn)	HT-29	cell growth or viability			> 10 µM
O=C(/C=C/c1ccc(Cn2cc(Cn3cnc4ccccc4c3=O)nn2)cc1)NO	MRC5	cell growth or viability	MTT	48 h	36.7 µM
curcumin	NCM460	cytotoxicity	MTT		431 µM
Cc1ccc2ncn(Cc3cn(Cc4ccc(/C=C/C(=O)NO)cc4)nn3)c(=O)c2c1	MRC5	cell growth or viability	MTT	48 h	26.7 µM
CC1=C(CO)C(=O)O[C@@H]([C@@H](C)[C@H]2CC[C@H]3[C@@H]4C[C@H]5O[C@]56[C@@H](O)C=CC(=O)[C@]6(CO)[C@H]4CC[C@]23C)C1	JMAR HNSCC	cell viability	MTS		5.1 ± 0.23 µM

For quick reference, copied from above:
Molecule	cell line	read-out	method	time	IC50
O=C(/C=C/c1ccc(Cn2cc(Cn3cnc4ccc(I)cc4c3=O)nn2)cc1)NO	MRC5	cell growth or viability	MTT	48 h	73 µM
C=C(C)C(=O)O[C@H]1C[C@@]2(C)OC(=CC2=O)/C(CO)=C\[C@H]2OC(=O)C(=C)[C@H]12	HT-29	cytotoxicity			0.56 µM
